Experimental data of several laboratories.
Every numbered part comes from another study and shows a few of its results, in no order. Positions count from the first letter of the parent shown.

Sample 1 — method: protein binding microarray; molecule type: double-stranded DNA, one strand shown; medium: in vitro; tested at: not given; reference: not given; reading: higher = stronger binding
Target: Histone acetyltransferase KAT6A, both winged helices, GST fusion (KAT6A, Homo sapiens, UniProt Q92794, residues 1-181)
Notes: 8-mer, flanks averaged, mean of 2 arrays, mostly near background
Construct (chain): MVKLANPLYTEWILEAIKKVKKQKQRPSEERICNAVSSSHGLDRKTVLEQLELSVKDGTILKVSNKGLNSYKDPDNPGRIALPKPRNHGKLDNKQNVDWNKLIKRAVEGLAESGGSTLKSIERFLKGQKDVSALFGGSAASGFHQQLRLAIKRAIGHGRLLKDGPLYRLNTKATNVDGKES
Sequence	E-score
TCCTAGGA	-0.105
GTCGTAGA	-0.0709
CAACTCAG	-0.146
ATGCCTCA	-0.103
CAAGTGGG	-0.194
ACACGGAC	0.211
ATCCGAAC	0.0257
CACGTGGA	-0.0572
GATCGATC	0.157
AACTTACG	0.123
CATTGTAG	-0.151
ATTCAATC	-0.0292
GGAGCTCC	-0.00517
CTGATGGC	-0.0466
CGAGAGTA	-0.0112
ACTTATCT	-0.161
ATTCACCC	-0.128
CCGATCGA	0.0882
AAAGCGCG	0.349
CTGTGGGC	-0.276
GCCAGGGA	-0.104
ATAATACA	-0.0667
CCGAGGTA	-0.0756
AGACTCGG	-0.0397

Sample 2 — method: RNA Bind-n-Seq; molecule type: RNA; medium: in vitro; tested at: 100 nM; reference: input RNA pool; reading: higher = stronger binding
Target: RING finger protein unkempt homolog, zinc fingers 1-6, SBP tag (UNK, Homo sapiens, UniProt Q9C0B0, residues 30-357)
UniProt Q9C0B0, sequence (30-357, looked up): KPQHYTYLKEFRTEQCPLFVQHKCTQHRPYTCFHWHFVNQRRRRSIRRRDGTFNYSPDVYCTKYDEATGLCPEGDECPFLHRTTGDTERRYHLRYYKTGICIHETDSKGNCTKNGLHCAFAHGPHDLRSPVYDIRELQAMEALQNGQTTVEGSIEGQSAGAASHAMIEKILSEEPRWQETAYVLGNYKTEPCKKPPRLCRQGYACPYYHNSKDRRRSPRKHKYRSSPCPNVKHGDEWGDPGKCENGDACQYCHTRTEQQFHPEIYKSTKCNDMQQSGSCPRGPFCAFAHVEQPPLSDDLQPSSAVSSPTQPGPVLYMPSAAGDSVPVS
Notes: RNA with constant flanks, vertebrate orthologous sites, ends assumed
Sequence	bound/input enrichment
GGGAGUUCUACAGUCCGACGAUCCACAUCUGGUGAUAUUUGGCCAGGCCUUUCGGCUUAUGAUAAUAGUCCCAGAUCACCCCAUAGUCCUUCACCUAUUGCUACACCCCCUAGUCAGAGUUCAUCUUGCUCUGAUGCUCCCAUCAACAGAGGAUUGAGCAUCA	0.702 ratio
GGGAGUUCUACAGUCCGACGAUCUUGCCUACAAUAAUGAAAACCUAUAGAAAUUUUUUUUUUAAUUUUUCAUUUCUCAUUAGGCAUAGUCUUUUUUUCCCCAGGCAGAUCAUUCUGAGUGUGCGAGUGUGUGUGCACAUGUUACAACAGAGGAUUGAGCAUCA	0.662 ratio
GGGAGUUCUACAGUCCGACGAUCGUGCAAGGAGAUUAUUCCAACUAGUGAAUUUAUUAACAGUAAGUUGACAGCAAAAGCAAAUAGGCAGCUUCAAGAUCCUUUAGUAAUCAUGACAGGAAACAUCCCGACGUGGCUGACUGACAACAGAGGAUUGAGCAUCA	0.639 ratio
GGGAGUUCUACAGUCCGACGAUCGGGGUGGGGCCAGUGGGGGAAUUCCCUGCCUUGGCCUCGCUUCUCCCUGCCACCUGCCCCUAGUUAUUUUUUUUUUAACCACCAUGUGAUUAAGGUCGGGUAUUACCUCCCCUGACCUGCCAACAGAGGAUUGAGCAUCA	2.58 ratio
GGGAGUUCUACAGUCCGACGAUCUCCUAGCACUUUGAUAAAAAGUGUGGACUGGUUGCUUGUGUUUUCCUUAUUCUUUUUAAUCAGUUUUAUUAUGUAUGCCACCAUUCGAACUGAGAGUAUUCGGUGGCUAAUUCCAGGACACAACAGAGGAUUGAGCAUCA	0.966 ratio
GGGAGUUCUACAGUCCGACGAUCCAACACACAGGGUUUACGAACUGGUCUUACAAAUGUGGCCAACAGAUAUGGAACUUACACUCCAGGACAAUUCACCCAGUUCAAGCAAUGACAGUAUCUCCAUUUUAAUAAAUUUGUAUUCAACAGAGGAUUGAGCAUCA	0.651 ratio
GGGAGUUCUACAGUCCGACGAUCGUCGUCUGAUUGGAUGAAGACUGUCCCGAGUUAUAACCAAACUAAUAGCUCCAUGGACUUCAGAAAUUAUAUGAUGAGAGAUGAGAAUCUGGAACCACUGCCCAAAAACUGGGAGAUGGCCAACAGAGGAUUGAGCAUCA	0.352 ratio
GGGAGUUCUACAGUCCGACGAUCAAAUUUAUUUCAUGCCCUGGACCCCCUAUCGUACUGAUACUUUAAUAGAAUAUGCUUCUUUAGAAGAUUUCCAAAACAGUCGCCAAACAACAACGUAUAAACUUCCAAAUCGAGUAGAUGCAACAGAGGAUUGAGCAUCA	1.29 ratio
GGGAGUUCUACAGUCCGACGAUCGCAAAUCCAAUCACUGUGAUAUUUAAAAUAUGCACAGUCCUGAUUCUUUCUCCAUGAUCCUAGUAUUUUUCUAGCUGUAUCUUUGUAUCUCAUACUGUUAUUUAUCAGUUUUGUUCCCCUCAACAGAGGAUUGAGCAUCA	0.654 ratio
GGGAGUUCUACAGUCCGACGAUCGCACAUGCCACUGUCACCAAAAACAAACUACCACUUUCCAAAUUUCAUUCAGAGCCAUUUUAGUGUUUUCCUAUUCCCUACCCCUGCCACUACUUUCAAUGAUGAAAUACCCUAAGUAAGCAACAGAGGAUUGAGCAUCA	4.69 ratio
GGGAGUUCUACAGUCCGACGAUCGGUUUUUUUUUUUUAGAUAUCAUUGCCCAGUGCCUAAGAUCUUUUAUGUUCAGCUGACUGUAGGAAAUAAUGAAUUUUUUGGUGAAGGAAAGACUCGACAAGCUGCAAGACACAACGCUGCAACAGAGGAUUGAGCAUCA	1.52 ratio

Sample 3 — method: protein-binding microarray; molecule type: double-stranded DNA, one strand shown; medium: in vitro; tested at: 250 nM; notes: 60-bp whole probe; with: salmon DNA 0.4 mg/ml; reference: random background probes; reading: higher = stronger binding; shared flanks, not repeated: GCCTAGCAC … GTCTTGATTCGCTTGACGCTGCTG
Target: Interferon regulatory factor 7, full length, phosphomimetic (IRF7, Homo sapiens, UniProt Q92985, residues 1-503, S101K/S471D/S472D/S475D/S476D/S477D/S483D/S484D/S487D)
UniProt Q92985, sequence (whole entry, unmodified, looked up): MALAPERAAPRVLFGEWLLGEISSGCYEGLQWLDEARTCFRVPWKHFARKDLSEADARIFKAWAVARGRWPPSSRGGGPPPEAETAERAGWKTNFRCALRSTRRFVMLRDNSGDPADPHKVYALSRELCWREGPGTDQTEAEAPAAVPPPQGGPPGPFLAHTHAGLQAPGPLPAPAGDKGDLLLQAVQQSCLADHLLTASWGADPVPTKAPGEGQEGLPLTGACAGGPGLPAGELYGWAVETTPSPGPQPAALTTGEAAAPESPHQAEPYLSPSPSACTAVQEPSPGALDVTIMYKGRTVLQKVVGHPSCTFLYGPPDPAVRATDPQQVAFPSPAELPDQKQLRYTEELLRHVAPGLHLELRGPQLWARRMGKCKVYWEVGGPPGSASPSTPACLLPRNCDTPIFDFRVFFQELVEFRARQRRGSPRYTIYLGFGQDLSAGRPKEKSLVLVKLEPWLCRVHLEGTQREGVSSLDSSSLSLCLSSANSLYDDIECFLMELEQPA
Sequence	log fluorescence
TACGGACTGGGACTGGGGACGTGCTAG	-0.378 z-score
GACGGTCTCGGTTTAGGGACGTGCTAG	7.02 z-score
GACGGACTGCCTCTCCTGACGTGCTAG	-0.366 z-score
CTGTTTTTGCTTTCCTTTATGTGCTAG	3.08 z-score
TTAGACATCGGGTATCGATTAGTGCTA	0.387 z-score
ATTGGTTGAACATGAACTTCGTGCTAG	-0.418 z-score
TTAGGTACCGGTTTCGGTTAGTGCTAG	10.2 z-score
GACGGACTGCTCCTGCTGACGTGCTAG	-0.975 z-score
GACGGTATCTGGTTTCGGGACGTGCTA	3.21 z-score
GTAGGTATCGGTATCGGTTAGTGCTAG	2.18 z-score
TTAGGTATCGACTATAGGTTAGTGCTA	0.00379 z-score
TTAGAATCCAGTTTCGATTAGTGCTAG	9.05 z-score
GACGGTCTCGGCTTCGGGACGTGCTAG	0.529 z-score
TTAGGTATCGATTATCGGTTAGTGCTA	1.77 z-score
CAATATTTGCAACATCCCAATGTGCTA	0.24 z-score
TTAGGTTTCGACTTTCGGTTAGTGCTA	11.6 z-score
TTAGGAGTGGGACTGGGTTAGTGCTAG	-0.493 z-score

Sample 4 — method: RNA Bind-n-Seq; molecule type: RNA; medium: in vitro; tested at: 365 nM; reference: no-protein control; reading: higher = stronger binding
Target: RNA binding protein fox-1 homolog 2, RRM domain, GST-SBP tag (RBFOX2, Homo sapiens, UniProt O43251-10, residues 100-194)
Notes: natural RNA segment, single round, ends assumed
Target sequence (chain): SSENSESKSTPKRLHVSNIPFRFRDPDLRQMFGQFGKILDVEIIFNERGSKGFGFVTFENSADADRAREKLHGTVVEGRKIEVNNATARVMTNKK
Sequence	RBNS enrichment (R)
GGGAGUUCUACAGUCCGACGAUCCUCCAUCAGAUGUCUGGGCCUCCUCCAUCAGAUGCCUGGGCCUCCUCCAUCAGAUGCCUGGGCCUCCUCCAUCAGAUGUCUAGGCCUCCUCCAUCAGAUGCCUGGGCCUCUGGAAUUCUCGGGUGCCAA	0.259
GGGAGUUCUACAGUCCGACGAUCGCCCAGCAGGAGUCACUGUUGGCCUCUGGACACUCAUCGGCCUUGGGCAAGUGGUUCUCAGCCAGGUUUCCGAUUGUCGAUUCAAGGAAGCAAAAGUAAUUUUUCUUGACUGGAAUUCUCGGGUGCCAA	0.347
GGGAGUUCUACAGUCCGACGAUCGAUUUCAGGAGAGAGCAGCUUUGAGGAAUGUGGAAAAUCAUAAUUGCCGUCUGGACCAUUGAUUGAUUGUGACCAGUAGCAGAAGGGUGCCUGUUACAUAGAGAGGCUCCUGGAAUUCUCGGGUGCCAA	1.19
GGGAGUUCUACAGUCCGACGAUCUGCUCCAGAGUGUCCCAGCCAACCCUCGGAAGAUGGGAUUGCCAGUCAGCCCUGCCUCACCAUGCCUGCAGGAGGCUGUCCAGGGAGCAGGUCUGUGUGCCCAUCAGCAGUGGAAUUCUCGGGUGCCAA	0.697
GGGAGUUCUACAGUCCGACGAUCUGAAUGGGAGCCUCAGGCAUGAUGUGCAGAAAUAGCCUUCUACACCAGGCAGGGACAGGUUGCCUGUGGCCCCCUCAAUCUGAGGUGCACCCCUUGGGCUAUGGACCCCAUGGAAUUCUCGGGUGCCAA	0.651
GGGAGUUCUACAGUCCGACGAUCUAGGAGAAUGGGAGGAGGGUCUCGUGGAAAUGUAGCUAUUGGAUCUUUCCUGCACUUAUGGAAAUGCUUUGUCUUUCCCAAUGAAACUGAUGUUUGCUUGUCUGCUUUCUUGGAAUUCUCGGGUGCCAA	2.67
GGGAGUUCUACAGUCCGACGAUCCUCAGGCCUUAGGGUGUAUUUGUCUUUCAGGAAGAUCAUAAUGGACAGAGAUCCUUGGAGGUUCAAAGACCAAGUACCAGACUGGAAAAUUGAGUCUGAAAGCCACAAGGUGGAAUUCUCGGGUGCCAA	0.534
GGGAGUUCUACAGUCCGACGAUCUUAAAAGAAAACUAUUUUGAUGAAUAUAUUUAAAAAACCUUUUUUUAUUGUGGAGCAUAGGAAUUGCCCCCCUCCAGGCUUCACCCUCCCUGCCUAAGCAGGGUGGGGGCUGGAAUUCUCGGGUGCCAA	0.327
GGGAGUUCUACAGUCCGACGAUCCAGCUGCUAGAGGGGAAAAACAAUUAAGACAAUGGAAAAGGAAAAAGGAAUGAAGGAACCUCCCUCCCUGAAAGCUUUUCCUGCUUCUGAGACUGUGUUCAGCCCUUUCCUGGAAUUCUCGGGUGCCAA	0.736
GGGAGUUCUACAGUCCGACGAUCUGCACUAAUCUAUCUGAAGAAAAAAACUAUAUCAACUUUGGUAUCUACUUUCCGUUUACUUCAAUCCUUGCCUUUUUGGUCAUUGUUAUAAUGCCAGCUUUAGGACAGAAUGGAAUUCUCGGGUGCCAA	1.23
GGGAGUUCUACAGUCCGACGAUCAAGAACAGAGAUGACAAAAGACCACUUGAAGAGAGGUUCCUAAUACUAGACAGAUGGAGAGUGGCUUGGCUGUUUCCCCCUGCAUAUUGGGGUUGAAAACUUAAAUGUGUUGGAAUUCUCGGGUGCCAA	0.686
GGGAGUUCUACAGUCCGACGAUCUUGCAUCAGGCUUUGCAGAACAAAUGUGAUUCACUUAAACGUUCACACACAGCAACACUGAAAUCCUACAGACCAAACAAACCCACUUGUCAGCAGGAGCCGUGGUCCAGUGGAAUUCUCGGGUGCCAA	0.334

Sample 5 — method: DHFR PCA, deep sequencing; medium: yeast; with: (+)-ABA 2500 µM; reference: wild-type fitted maximum; reading: higher = stronger binding
Target: ABI1, truncated, D143A, DHFR fusion (Arabidopsis thaliana)
Notes: methotrexate growth selection, single substitutions
Starting sequence: PYL1, truncated, DHFR fusion (Arabidopsis thaliana); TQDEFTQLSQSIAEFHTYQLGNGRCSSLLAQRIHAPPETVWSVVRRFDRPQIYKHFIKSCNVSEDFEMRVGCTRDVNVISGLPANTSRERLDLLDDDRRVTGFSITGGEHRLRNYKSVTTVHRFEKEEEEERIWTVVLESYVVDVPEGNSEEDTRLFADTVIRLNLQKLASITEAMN
Substitution	relative binding score [%]
V44N	17.1
R32C	91.7
R155Q	94.5
E109S	103
V121R	-2.82
R155T	96.9
K126E	111
E131M	98.8
R24P	75.6
I172M	90.7
V40I	87.2
T160Y	94.7
I52F	89.6
V43W	86.5
V142F	88.9

Sample 6 — target: CCNB1, cyclin fold, Cln2 fusion (human); method: yeast growth competition, sequencing; medium: yeast; notes: weak parent motif; reference: not given; reading: higher = stronger binding
Starting sequence: NPAT docking peptide (human); PCHRRVLCFDSTT
Substitution	normalised enrichment score
S11A	0.178
R4A	0.545
D10A	0.359
T12A	0.565
C8A	0.677
R5K F9L	0.46
V6A	0.728

A few entries again (sample 1):
Sequence	E-score
GGAGCTCC	-0.00517
CTGATGGC	-0.0466
AGACTCGG	-0.0397
CACGTGGA	-0.0572
CCGATCGA	0.0882
GTCGTAGA	-0.0709
GCCAGGGA	-0.104
GATCGATC	0.157
